Measurements of several laboratories.
Numbered parts are unrelated; each lists some results of a single study. Positions count from the first letter of the parent shown.

Sample 1
Target: Centromere-binding protein 1, full length, His-tagged (CBF1, Saccharomyces cerevisiae, UniProt P17106, residues 1-351)
UniProt P17106, sequence (whole entry, looked up): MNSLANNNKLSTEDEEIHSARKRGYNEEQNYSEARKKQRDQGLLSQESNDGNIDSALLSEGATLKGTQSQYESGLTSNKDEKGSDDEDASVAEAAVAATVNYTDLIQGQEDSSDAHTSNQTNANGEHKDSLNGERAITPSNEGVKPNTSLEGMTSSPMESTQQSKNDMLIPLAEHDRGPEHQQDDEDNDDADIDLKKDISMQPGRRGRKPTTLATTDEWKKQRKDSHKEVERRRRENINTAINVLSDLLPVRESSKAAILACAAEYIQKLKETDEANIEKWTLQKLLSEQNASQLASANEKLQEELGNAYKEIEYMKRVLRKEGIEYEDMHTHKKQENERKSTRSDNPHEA
Method: competition protein-binding microarray
Form: double-stranded DNA, one strand shown
Sample: in vitro
Concentration: 2 µM
Setting: whole 60-bp probe, lowest competitor level
Together with: Pho4 competitor, 0.05 µM
Direction: higher = stronger binding
Constant ends, left off below: … GTCTTGATTCGCTTGACGCTGCTG
| Oligonucleotide | fluorescence intensity [a.u.] |
| --- | --- |
| GATGGCCATTGATAACGCGTGAAATTTTCCAGGGTG | 77.2 |
| TCATGGTGAATTTTGCACGTGGCCGTCCAAGTCCTT | 1230 |
| TTTTTGTTCGCTACCCACGTCTTGACCGACGGTACC | 56 |
| GCACCTCATCTAGCGGAGGTGCAGGGATGTACCAAC | 54.5 |
| CATACCATCTTTAGCGACGTGTGGAAGACCCGATTC | 64.7 |
| AGTAGAAACAATAGTATCGTGATGGGATCCCTCTTG | 119 |
| CCCCTCCTCTCTCCGCACGATTTCTTCCTTTCATAT | 91.3 |
| GAGAGGAAGACGCGTTTCGTGGGACTTGGACCACTA | 58.7 |
| CGGGGTTAAGTTTGTCACTCCACTTGCTTGCAGCAG | 92.6 |
| CGTCCTAGTGATTGTAATGTGGGTGCCATGAGGAAG | 82.6 |
| GTCTTGTCTCATTGTCGAGTGGGTGTCCCCACTTCA | 77.2 |
| GTCTTGTCTCATTTGCACGTGTTTTTCCCCACTTCA | 1620 |
| AAATTACTAAGTTTTCACGTGTGATACCCCGTATGA | 730 |
| AAAGCGGTAATTTTTCACGTGTTTTCACATATCTAT | 1000 |
| TTGATGTACTTGTCTCACGTGGAAGCAACCATTTTG | 887 |
| GTCTTGTCTCATTGAACGGTGGGTGTCCCCACTTCA | 61 |
| GTCTTGTCTCATTGCGTGGTGGGTGTCCCCACTTCA | 84.8 |
| CGTCCTAGTGATTGGTCTGTGGGTGCCATGAGGAAG | 85.7 |
| AAAGCGGTAATTTGACACGTGGGTGCAGATATCTAT | 1500 |
| CATACCCAACCTTGGGGTGTGGGTGAAGATATTTGT | 70.3 |
| AAAGCGGTAATTTAACACGTGTTTTCACATATCTAT | 3170 |
| TGTCACAGTAGTTATAGCTAAGGTCAATAAGTAGTT | 67.9 |
| GGTGGAAATAACAAAAGCGTGACGGCAAAGAAGCAA | 308 |
| TAGCTGACATCCAAGCATGCGTGGAAGATTTCTTAA | 61.2 |

Sample 2
Target: ABI1, truncated, D143A, DHFR fusion (Arabidopsis thaliana)
Method: DHFR PCA, deep sequencing
Sample: yeast
Setting: methotrexate growth selection, single substitutions
Together with: (+)-ABA 17 µM
Relative to: wild-type fitted maximum
Direction: higher = stronger binding
Starting sequence: PYL1, truncated, DHFR fusion (Arabidopsis thaliana); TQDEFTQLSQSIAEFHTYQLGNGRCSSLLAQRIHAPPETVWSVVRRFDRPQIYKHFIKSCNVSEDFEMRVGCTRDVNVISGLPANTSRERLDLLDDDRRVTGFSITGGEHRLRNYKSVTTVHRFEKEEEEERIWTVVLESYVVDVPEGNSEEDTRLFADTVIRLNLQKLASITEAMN
| Change | relative binding score [%] |
| --- | --- |
| V121M | 6.22 |
| S27M | 15.3 |
| I12Y | 25.7 |
| F56M | 65.1 |
| F5W | 82.7 |
| L29W | 10.9 |
| D75M | 88.9 |
| Y141V | -2.18 |
| N85M | 82.4 |
| L166D | -9.97 |
| D65W | 41.2 |
| K126P | 92 |
| S87H | 5.76 |
| V43D | -3.77 |
| D65P | 87.5 |
| N165E | -8.22 |
| T1K | 83.6 |
| E125K | 88.9 |
| F47N | -25 |
| V78A | 39.2 |
| N61Q | 87.2 |
| V118Y | 29.2 |
| S63E | 85.5 |

Sample 3
Target: TATA-box-binding protein 1 (TBP1, Arabidopsis thaliana, UniProt P28147, residues 1-200, full length assumed)
Method: protein-binding microarray
Form: double-stranded DNA, one strand shown
Sample: in vitro
Concentration: not given
Setting: k-mer, scored over probes, only values ≥0.25
Direction: higher = stronger binding
Construct (chain): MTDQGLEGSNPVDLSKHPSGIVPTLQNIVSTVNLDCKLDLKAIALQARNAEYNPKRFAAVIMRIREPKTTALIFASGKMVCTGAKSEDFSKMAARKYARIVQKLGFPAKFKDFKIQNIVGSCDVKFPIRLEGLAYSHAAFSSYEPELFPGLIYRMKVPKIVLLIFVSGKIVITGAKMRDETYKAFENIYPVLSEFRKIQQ
| Oligonucleotide | E-score |
| --- | --- |
| CTTTATA | 0.464 |
| ATAAGTC | 0.314 |
| GTTATTA | 0.31 |
| ATATATA | 0.495 |
| ACTTATA | 0.457 |
| TACTAAA | 0.272 |
| AATGATA | 0.3 |
| AATATGA | 0.312 |
| GGTTTTA | 0.316 |
| GTCTTAA | 0.261 |
| ACATTTA | 0.385 |
| AATTTTA | 0.358 |
| AATCTTA | 0.29 |
| AATAAAA | 0.412 |
| TCTATAA | 0.376 |
| AACTACA | 0.266 |
| AATAAGC | 0.27 |
| AGATAAT | 0.329 |
| AAGTATT | 0.305 |
| ATTATTG | 0.285 |
| CCTTATA | 0.437 |

Sample 4
Target: RNA binding protein fox-1 homolog 2, RRM domain, GST-SBP tag (RBFOX2, Homo sapiens, UniProt O43251-10, residues 100-194)
Method: RNA Bind-n-Seq
Form: RNA
Sample: in vitro
Concentration: 365 nM
Setting: natural RNA segment, single round, ends assumed
Relative to: no-protein control
Direction: higher = stronger binding
Constant ends, left off below: GGGAGUUCUACAGUCCGACGAUC … UGGAAUUCUCGGGUGCCAA
Construct (chain): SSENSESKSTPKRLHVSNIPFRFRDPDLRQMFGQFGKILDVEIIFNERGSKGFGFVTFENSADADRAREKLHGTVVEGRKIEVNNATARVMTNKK
| Oligonucleotide | RBNS enrichment (R) |
| --- | --- |
| AAUAUUUAUGGGUGAAUUGAUGCCACAAAAGUAAUAUGAUUGCCCACCUCAACCUGGCAUUCUGUGUUAAUAAUACAGAUACUAUUUUUAUAAAAUCAUUUUCAAGUUUC | 0.598 |
| AACAAAUGUGCCCACCCCACCUUCCACUUAAAGAAAAAAAAUCUCAAAAUAAAUUUCUGAAUUAUGCAUCAUAAAGCUUUGAAAUUUCUUUUUUAAUUGAUGGGAUACUA | 1.11 |
| AUAUAUGUAUAAUAUAUCAAUACUGGAGCCCCGCCUUUCUGUGCCCAGGUCCAGGCCCUGUGUAAGGGCUUGCAGCCUGUCUCUGCUGUCCACCCUGCAGUGCUCACUUU | 0.261 |
| GGGGAAGGUCUUUCAUCUCAGCCAUUUUCUCUUCCCCCCGCCCCCCCUUAGAUGGAGUCUUGCUCUGUCACCCAGGUUGGAGUGCAGUGGCACAAUCAGCUCACUGCAAC | 0.26 |
| CUGUUGUCGGUGAUUUGUUUGUCUUUCUGAUAGGUUGAAAAUUGUGUAAUAAACUUGAUGACGCUGUAAUCUUUUAUACUGCAUUGUAUUUUUUUCCUUUUGUAACAAAA | 0.372 |
| UGCUGUUAAUACUUCCAUCCUCUUCCUUCCCAAAGAGCAGAUCCCAAGGCAUUUACUCCUUGGUCUGUCUCGCUUUAUCUGUCGCCCCUCCCAGCGCUGAGAGCCUCCCC | 0.918 |
| AGCACCCCGCCCCUCUGGGCACUGCCUGGAAGAAUCGGGAGCCUGGCCAGCCUUCAGCUCGCUCCUCCACUUCUGAGGGGCCUAGGAGGCCUCCCACAGGUGUCCCGGCA | 4.14 |
| AUUCUACAUACUAAAUCUCUCUCCUUUUUUAAUUUUAAUAUUUGUUAUCAUUUAUUUAUUGGUGCUACUGUUUAUCCGUAAUAAUUGUGGGGAAAAGAUAUUAACAUCAC | 0.604 |
| UUUCUAGCAAAACAUGUUUUUAACCAUCAGUGCUCAAUUGCAUUUUCUUCCUUUCGCAGCCAGUCAGUCUUUCAAACUAUUGACAGUAAGAUAAUUCUCACGUUCACACC | 0.966 |
| GUCUCAGUGUUAUUAAUGAGAAAAAGUUCUGUCAUUCAGGAAAAAAAAGCAAAAAACGUGAGGUUGGGACUCAGUAGGUGAGGGUGCUUGCAGCCAAACCUGAUGACCUG | 0.414 |
| GCUCCUGCUAAGACAUGGAAACAAGUAUUGGAACCUCCAGAGUGUUUAAAUGGCUAUUGAAAUUUAUAAUGGCCCUUCAAUUCUUACUAUAUGCUUAAUAGUGUGCUAAA | 0.519 |
| AUGAAUGGGUUUCUAUAUAUGGGUCUGUGUGAGUGUAUGUGUGUGUGUGAUUUUUUUUUUAAAUUUAUGUUGCGGAAAGGUAACCACAAAGUUAUGAUGAACUGCAAACA | 0.733 |

Sample 5
Target: CCNE1, cyclin fold, Cln2 fusion (human)
Method: yeast growth competition, sequencing
Sample: yeast
Setting: weak parent motif
Relative to: not given
Direction: higher = stronger binding
Starting sequence: RB1 docking peptide (human); PKPLKKLRFDIEG
| Change | normalised enrichment score |
| --- | --- |
| PKPLKKLRVDIEG [F9V] | 0.515 |
| PKPLKWLRFDIEG [K6W] | 0.32 |
| PKPLYKLRFDIEG [K5Y] | 0.911 |
| PKPMKKLRFDIEG [L4M] | 0.85 |
| PKPLKKLRFDIHG [E12H] | -0.48 |
| PKPLKKLRFSIEG [D10S] | -1.04 |
| PKPLKKLRFQIEG [D10Q] | 0.0829 |
| PKGLKKLRFDIEG [P3G] | 0.347 |
| FKPLKKLRFDIEG [P1F] | -0.207 |
| RKPLKKLRFDIEG [P1R] | 0.243 |
| VKPLKKLRFDIEG [P1V] | 0.178 |
| PKPLKKLRFDIEE [G13E] | -0.289 |
| PKPLKKFRFDIEG [L7F] | 0.0468 |
| PCPLKKLRFDIEG [K2C] | 0.612 |
| PKPLKKLTFDIEG [R8T] | 0.873 |
| PKPLKKLRFDISG [E12S] | 0.634 |
| PKKLKKLRFDIEG [P3K] | -0.3 |
| PKPLKKLHFDIEG [R8H] | 0.741 |
| PKPLKKLRFDIEA [G13A] | 0.685 |
| PKPLKKLRFTIEG [D10T] | -0.192 |
| PKPLVKLRFDIEG [K5V] | -0.338 |
| PKPGKKLRFDIEG [L4G] | 0.526 |
| PKPLKKLRFDIEQ [G13Q] | 1.1 |
| PKTLKKLRFDIEG [P3T] | 0.391 |
| PKPLKKLFFDIEG [R8F] | 0.622 |

Further values, each from its own experiment
| Molecule | target | assay | test system | setting | scale | endpoint | value |
| --- | --- | --- | --- | --- | --- | --- | --- |
| PhoQ, residues 284 288 289 292 302 303 SNSSNI | PhoP, residues 12 14 15 18 19 SEGLL (Escherichia coli, UniProt P23836) | Sort-seq, measured: YFP reporter | E. coli | PhoQ-PhoP variant library, together with: 10 µM Mg2+ | relative to: high Mg2+ state, higher = stronger signaling | fold induction | 4.53 |
